# Assay results from different studies.
# Every numbered part comes from another study and shows a few of its results, in no order.
# Chain of UniProt P14921 (whole entry, unmodified, looked up): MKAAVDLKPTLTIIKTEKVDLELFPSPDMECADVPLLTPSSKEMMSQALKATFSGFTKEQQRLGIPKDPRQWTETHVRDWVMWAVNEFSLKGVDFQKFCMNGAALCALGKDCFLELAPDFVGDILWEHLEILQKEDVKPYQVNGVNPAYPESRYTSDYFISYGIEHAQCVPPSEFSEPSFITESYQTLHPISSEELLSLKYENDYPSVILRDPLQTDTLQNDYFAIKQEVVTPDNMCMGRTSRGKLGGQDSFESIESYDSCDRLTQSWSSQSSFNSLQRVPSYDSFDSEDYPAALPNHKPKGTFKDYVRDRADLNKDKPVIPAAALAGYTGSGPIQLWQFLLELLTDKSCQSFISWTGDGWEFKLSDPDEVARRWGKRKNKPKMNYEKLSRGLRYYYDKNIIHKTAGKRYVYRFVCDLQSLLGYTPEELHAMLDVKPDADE

# Series 1
# Target: Prothrombin, mature alpha-thrombin (F2, Homo sapiens, UniProt P00734)
# Method: aptamer microarray, sandwich
# Form: DNA with 2'F-ANA
# Matrix: in vitro
# Tested at: 200 nM
# Notes: whole 15-mer aptamer, many near background
# Together with: Cy3 exosite-II aptamer, 400 nM
# Direction: higher = stronger binding
Sequence,mean fluorescence intensity [a.u.]
GGTTGGTGTGGTTGG (2'F-ANA at 1 4 5 6 7 9 10 11 13 15),49.7
GGTTGGTGTGGTTGG (2'F-ANA at 2 3 4 6 7 8 12 14),358
GGTTGGTGTGGTTGG (2'F-ANA at 1 3 4 7 8 10 12 13 15),72.7

# Mixed results
# CBF1 full length, N-terminal tag: Centromere-binding protein 1, full length, N-terminal tag (CBF1, Saccharomyces cerevisiae, UniProt P17106, residues 1-351)
# Chain of UniProt P17106 (whole entry, looked up): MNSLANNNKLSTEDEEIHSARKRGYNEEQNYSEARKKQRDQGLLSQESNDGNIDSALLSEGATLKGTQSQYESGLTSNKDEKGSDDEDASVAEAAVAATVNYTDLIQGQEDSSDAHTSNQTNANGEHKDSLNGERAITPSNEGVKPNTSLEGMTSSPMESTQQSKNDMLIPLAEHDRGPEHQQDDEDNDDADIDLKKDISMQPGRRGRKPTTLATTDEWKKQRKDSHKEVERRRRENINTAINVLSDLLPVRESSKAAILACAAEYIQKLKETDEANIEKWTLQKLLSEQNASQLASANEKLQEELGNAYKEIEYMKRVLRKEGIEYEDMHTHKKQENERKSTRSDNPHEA
Molecule,target,assay,test system,setting,how to read,quantity,result
TGTACGAAGCTATCGCACATTTTTATAGTAGTTAGGGTCTTGATTCGCTTGACGCTGCTG,"CBF1 full length, N-terminal tag",protein-binding microarray,"double-stranded DNA, one strand shown, in vitro","0.8 µM, whole 60-bp probe, no competitor",higher = stronger binding,fluorescence intensity,523 a.u.
ATTTGTCA,"Protein C-ets-1 (ETS1, Homo sapiens, UniProt P14921, residues 1-441, Y397A, full length assumed)",protein-binding microarray,"double-stranded DNA, one strand shown, in vitro","not given, k-mer, scored over probes, only values ≥0.25",higher = stronger binding,E-score,0.404
GTCTTCTGCCCCGGTCATATGAGTGGTATTCTTCTAGTCTTGATTCGCTTGACGCTGCTG,"Centromere-binding protein 1, full length, His-tagged (CBF1, Saccharomyces cerevisiae, UniProt P17106, residues 1-351)",competition protein-binding microarray,"double-stranded DNA, one strand shown, in vitro","2 µM, whole 60-bp probe, lowest competitor level, together with: Pho4 competitor, 0.05 µM",higher = stronger binding,fluorescence intensity,139 a.u.
"PhoQ, residues 284 288 289 292 302 303 NLGVHL","PhoP, residues 12 14 15 18 19 NQCAL (Escherichia coli, UniProt P23836)","Sort-seq, item: YFP reporter",E. coli,"PhoQ-PhoP variant library, together with: 10 µM Mg2+","baseline: high Mg2+ state, higher = stronger signaling",fold induction,1.34
CTATTTGCAACACGATGCGTGACGGTAATGCTTTTCGTCTTGATTCGCTTGACGCTGCTG,"CBF1 full length, N-terminal tag",protein-binding microarray,"double-stranded DNA, one strand shown, in vitro","0.8 µM, whole 60-bp probe, no competitor",higher = stronger binding,fluorescence intensity,683 a.u.

# Excerpt of the above (mixed results):
Molecule,target,assay,test system,setting,how to read,quantity,result
CTATTTGCAACACGATGCGTGACGGTAATGCTTTTCGTCTTGATTCGCTTGACGCTGCTG,"CBF1 full length, N-terminal tag",protein-binding microarray,"double-stranded DNA, one strand shown, in vitro","0.8 µM, whole 60-bp probe, no competitor",higher = stronger binding,fluorescence intensity,683 a.u.
